Results of several laboratories.
Compare with care: the assays were run in different laboratories. Numbers after ± are the reported error.

Structure (SMILES) | target or system | test | system | conditions | how to read | endpoint | value
Cc1ncc2n1-c1ccc(Cl)cc1C(c1ccccc1F)=NC2 | – | – | healthy human volunteers, plasma | oral, dose not given, CYP3A probe substrate, added: multiple-dose momelotinib | relative to: compound alone | decrease in AUCinf | 16%
CN1CC[C@]23c4c5ccc(O)c4O[C@H]2[C@@H](O)C=C[C@H]3[C@H]1C5 | – | – | mouse | intraperitoneal, 10 mg/kg | relative to: vehicle | conditioned place preference score | increased
O=C1c2c(O)c(=O)ccn2N([C@@H]2c3ccccc3SCc3c2ccc(F)c3F)[C@@H]2COCCN12 | – | – | BALB/c mice, plasma | oral, 1.5 mg/kg baloxavir marboxil, 6 h | – | plasma concentration | 4.91 ng/mL
CCC(CC)COC(=O)[C@H](C)N[P@](=O)(OC[C@H]1O[C@@](C#N)(c2ccc3c(N)ncnn23)[C@H](O)[C@@H]1O)Oc1ccccc1 | – | – | human | dose not given, CYP3A induction, added: carbamazepine | – | change in exposure | ≤ 20%
Cc1ncc2n1-c1ccc(Cl)cc1C(c1ccccc1F)=NC2 | – | – | wild-type mice, plasma | intravenous, 0.3 mg/kg, added: 3-day PCN 10 mg/kg | – | clearance | 358 ± 28 mL/min
CCOC1O[C@H]([C@@H](COCc2ccccc2)OCc2ccccc2)[C@H](OCc2ccccc2)[C@H]1O (some centres unmarked) | African green monkey cells | – | – | 5 days | – | CC50 | 17.4 µM
Cc1ncc(OC[C@@]2(c3cccc(F)c3)C[C@H]2C(=O)Nc2ccc(F)cn2)c(C)n1 | – | population PK base model | human, plasma | oral | – | V2/F | 12.3 L
CN1CC[C@]23c4c5ccc(O)c4O[C@H]2[C@@H](O[C@@H]2O[C@H](C(=O)O)[C@@H](O)[C@H](O)[C@H]2O)C=C[C@H]3[C@H]1C5 | – | – | rat, whole blood | 1000 nM, 4 months, -80 °C, long-term storage | – | stability bias | -7.26%
CN1CC[C@]23c4c5ccc(O)c4O[C@H]2[C@@H](O)CC[C@@]3(O)[C@H]1C5 | – | PAMPA-BBB | porcine brain lipid | 500 µM, 4 h, pH 7.4, 1% DMSO | – | Papp | 5.1 ×10⁻⁶ cm/s
COC(=O)[C@H]1[C@@H](OC(=O)c2ccccc2)C[C@@H]2CC[C@H]1N2C | – | – | rat, whole blood | 10 nM, 4 h, room temperature, bench-top storage | – | stability bias | -3.67%
CN1CC[C@]23c4c5ccc(O)c4O[C@H]2[C@@H](O)C=C[C@@]3(O)[C@H]1C5 | – | PAMPA-BBB | porcine brain lipid | 500 µM, 4 h, pH 7.4, 1% DMSO | – | Papp | 6.29 ×10⁻⁶ cm/s
COC(=O)[C@@H]1[C@H]2CC[C@@H](C[C@@H]1O)N2C | – | – | rat, whole blood | 1000 nM, 4 h, room temperature, bench-top storage | – | stability bias | 6.53%
Cc1ncc2n1-c1ccc(Cl)cc1C(c1ccccc1F)=NC2 | – | – | healthy humans | oral, dose not given | – | nervous system adverse events | 21.7%
CC(=O)O[C@H]1C=C[C@H]2[C@H]3Cc4ccc(O)c5c4[C@@]2(CCN3C)[C@H]1O5 | – | – | rat, whole blood | 10 nM, 4 h, room temperature, bench-top storage | – | stability bias | 10%
CC(C)(C)NC(=O)[C@@H]1C[C@@H]2CCCC[C@@H]2CN1C[C@@H](O)[C@H](Cc1ccccc1)NC(=O)[C@H](CC(N)=O)NC(=O)c1ccc2ccccc2n1 | African green monkey cells | – | – | 5 days | – | CC50 | 18.2 µM
C#Cc1ccc2c(c1)C(c1ccccn1)=NCc1c(-c3cnco3)ncn1-2.Cl | – | thermodynamic equilibrium, UV | isopropanol | 24 h, 25 °C | – | solubility | 4040 µg/mL
CN1CC[C@]23c4c5ccc(O[C@@H]6O[C@H](C(=O)O)[C@@H](O)[C@H](O)[C@H]6O)c4O[C@H]2[C@@H](O)C=C[C@H]3[C@H]1C5 | – | – | rat, whole blood | 1000 nM, 4 h, room temperature, bench-top storage | – | stability bias | -5.36%
COc1cc2c(Oc3ccc4[nH]c(C)cc4c3F)ccnc2cc1OCC1(N)CC1 | – | – | paediatric recurrent refractory sarcoma | 8 mg | – | grade 1 or 2 influenza-like symptoms | 0%
COC(=O)[C@H]1[C@@H](OC(=O)c2ccccc2)C[C@@H]2CC[C@H]1N2 | – | – | rat, whole blood | 10 nM, 4 freeze-thaw cycles | – | stability bias | 19%
CCCCCCCCCCC(=O)O[C@H]1CC[C@H]2[C@@H]3CCC4=CC(=O)CC[C@]4(C)[C@H]3CC[C@]12C | – | – | human male serum | 500 ng/mL, NaF 25.0 mg/mL, baseline testosterone 441 ng/dL | – | testosterone level | 454 ng/dL

Repeated from above:
Structure (SMILES) | target or system | test | system | conditions | how to read | endpoint | value
Cc1ncc(OC[C@@]2(c3cccc(F)c3)C[C@H]2C(=O)Nc2ccc(F)cn2)c(C)n1 | – | population PK base model | human, plasma | oral | – | V2/F | 12.3 L
CN1CC[C@]23c4c5ccc(O)c4O[C@H]2[C@@H](O[C@@H]2O[C@H](C(=O)O)[C@@H](O)[C@H](O)[C@H]2O)C=C[C@H]3[C@H]1C5 | – | – | rat, whole blood | 1000 nM, 4 months, -80 °C, long-term storage | – | stability bias | -7.26%
